Experimental data from different studies.
Compare with care: the assays were run in different laboratories. ± gives the spread as reported.
Method: steady-state kinetics
B1: GlcAK1 (Arabidopsis thaliana, UniProt A0A1I9LRK4); chain KRVREEKMDPNSTVSGDGQATAAIEHRSFARIGFLGNPSDVYFGRTISLTIGNFWASVKLEPSEHLVIKPHPFHDLVQFTSLDHLLNRLQNEGYYGGVRLLMAICKVFRNYCKENDIQLHQANFSLSYDTNIPRQTGLSGSSAIVSAALNCLLDFYNVRHLIKVQVRPNIVLSAEKELGIVAGLQDRVAQVYGGLVHMDFSKEHMDKLGHGIYTPMDISLLPPLHLIYAENPSDSGKVHSMVRQRWLDGDEFIISSMKEVGSLAEEGRTALLNKDHSKLVELMNLNFDIRRRMFGDECLGAMNIEMVEVARRVGAASKFTGSGGAVVVFCPEGPSQVKLLEEECRKAGFTLQPVKIAPSCLNDSDIQTL
B2: protein A329L (Streptomyces toyocaensis, UniProt Q8KLK7); chain MTTVLPPLEDTDGLWAALTEAAASVEKLLATLPEHGARSSAERAEIAAAHDAARALRVRFLDTHADAVYDRLTDHRRVHLRLAELVEAAATAFPGLVPTQQQLAVERSLPQAAKEGHEIDQGIFLRAVLRSPLAGPHLLDAMLRPTPRALELLPEFVRTGEVEMEAVHLERRDGVARLTMCRDDRLNAEDGQQVDDMETAVDLALLDPGVRVGLLRGGVMSHPRYRGKRVFSAGINLKYLSQGGISLVDFLMRRELGYIHKLVRGVLTNDDRPGWWHSPRIEKPWVAAVDGFAIGGGAQLLLVFDRVLASSDAYFSLPAAKEGIIPGALNLRLGRFAGPRVSRQVILEGRRIWAKEPEARLLVDEVVEPDELDAAIERSLTRLDGDAVLANRRMLNLADESPDGFRAYMAEFALMQALRLYGHDVIDKVGRFGGRPPA
B3: enzyme H189A (Acetivibrio thermocellus, UniProt A3DJ38); chain MKLTIPELSLVVLIGSSGSGKSTFAKKHFKPTEVISSDFCRGLVSDDENDQTVTGAAFDVLHYIVSKRLQLGKLTVVDATNVQESARKPLIEIAKDYHCFPVAVVFNLPEKVCQERNKNRTDRQVEEYVIRKHTQQLKKSIKGLQREGFRYVYILNSPEEVEEVVFERQPLWNNKKDEHGPFDIIGDIAGCYDELKMLLEKLGYLIEEVEGGVGSGKYRVTHPEGRKVLFLGDLVDRGPKITEVLKLVMGMVKSGIALCVPGNHDVKLLRKLNGRDVQITHGLDRTLEQLAKEPQEFIEEVKAFIDGLVSHYVLDDGKLVVAHAGMKEEFQGRGSGKVREFALYGETTGETDEYGLPVRYDWASDYRGKALVVYGHTPQAEVLKVNNTINIDTGCVFGGKLTAYRYPEREIVDVKALKTYYEPAKPFLPKEDMAERFEARTDNDILDINDVLGKKIITTRLMSSITIHEENSIAALEVMSRFAADPHWLIYLPPTMSPCETSKKEGMLEHPIEAFEYFRTRGVGKVVCEQKHMGSRAVVIVCKDSQVAEKRFGVLDGTAGICYTRTGRHFFDDMQLEAELIDRVRKVLDKSGFWGDFNTDWVCLDCELMPWSAKAQKLLEEQYSAVGISGRVVLDEAVKLLKQASLNKTVSFDVSRQTSGKNADINELLQRFTERSEMMQKYVEAYRKYCWPVNSIDDLKLAPFHILATEGKVHSDKNHIWHMDTIAKYCTQDDSLIMATNHILVDVTDAESVDKGIKWWEDLTASGGEGMVVKPYDFIVKNGRELLQPAVKCRGREYLRIIYGPEYTMDENIERLRNRAVGKKRSLALREFSLGMEALERFVRNEPLYRVHECVFGVLALESEPVDPRL
B4: enzyme E217L/L163H/N249W (Thermobifida fusca, UniProt Q47RK4); chain MTDVYILDAVRTPFGRYGGALSGIRPDDLAAHVLRALAERSPGLDPAAVDDVFFGDANGAGEDNRNVARMAALLAGWPTSVPGVTLNRLCGSGMESVIAANRAIAVGDASLAVAGGVESMSRAPWVLPKPAQGFPTGHETLYSTTLGWRMVNPAMPEQWTVSHGESTEQVAATYGISRAEQDAFALRSHERAARAWAEGVFDAEITQIPGAELERDLSIRETSAEKLAALKPAFRPDGTITAGNASPLWDGAAALLIGDAAAAERVGREPLARIVSRGVAAVDPDVFGIGPVQAAEIALRRAGIGWDDLSVVELNEAFAAQSLACLKLWPDLDPEIVNPNGGAIAIGHPLGASGARIVGTLAHELHRRGGGWGLAAICIGVGQGLAVVLHR
B5: UGT84B1 (Arabidopsis thaliana, UniProt O22182); chain MGSSEGQETHVLMVTLPFQGHINPMLKLAKHLSLSSKNLHINLATIESARDLLSTVEKPRYPVDLVFFSDGLPKEDPKAPETLLKSLNKVGAMNLSKIIEEKRYSCIISSPFTPWVPAVAASHNISCAILWIQACGAYSVYYRYYMKTNSFPDLEDLNQTVELPALPLLEVRDLPSFMLPSGGAHFYNLMAEFADCLRYVKWVLVNSFYELESEIIESMADLKPVIPIGPLVSPFLLGDGEEETLDGKNLDFCKSDDCCMEWLDKQARSSVVYISFGSMLETLENQVETIAKALKNRGLPFLWVIRPKEKAQNVAVLQEMVKEGQGVVLEWSPQEKILSHEAISCFVTHCGWNSTMETVVAGVPVVAYPSWTDQPIDARLLVDVFGIGVRMRNDSVDGELKVEEVERCIEAVTEGPAAVDIRRRAAELKRVARLALAPGGSSTRNLDLFISDITIA
B6: enzyme (Drosophila melanogaster, UniProt P82890); chain MVRKVLMICLGNICRSPIAEVVMVDTLEKANVKDVEVDSAAIGGWHVGNRADPRAISTLQKHGLKCTHIVRQIRKQDFSEFDYIFGMDEDNMSELRRLAPKGSKAELLMLGDFGLEKKNRIIEDPYYERGAEGFETAYQQCVVACAAFMKERLQK

`B1 (GlcAK1)` has a kcat of 8.5 s⁻¹ (Nc1ncnc2c1ncn2[C@@H]1O[C@H](COP(=O)(O)OP(=O)(O)OP(=O)(O)O)[C@@H](O)[C@H]1O; pH 7.5, 25 mM KCl, Hill fit, together with: 1 mM GlcA; 10 mM MgCl2).
With `fcl (Campylobacter jejuni, UniProt Q0P8I6)` the kcat was 6.1 ± 0.2 s⁻¹ (Nc1nc2c(ncn2[C@@H]2O[C@H](COP(=O)(O)OP(=O)(O)O[C@H]3O[C@@H]([C@H](O)CO)C(=O)[C@@H](O)[C@@H]3O)[C@@H](O)[C@H]2O)c(=O)[nH]1; pH 7.5, 30 °C, apparent).
The kcat of `B2 (protein A329L)` is reported as 0.017 ± 0.001 s⁻¹ (CC(C)(COP(=O)(O)OP(=O)(O)OC[C@H]1O[C@@H](n2cnc3c(N)ncnc32)[C@H](O)[C@@H]1OP(=O)(O)O)[C@@H](O)C(=O)NCCC(=O)NCCSC(=O)Cc1cc(O)cc(O)c1; pH 7.5, 24 °C, together with: O2).
With `B3 (enzyme H189A)` the kcat was 1.45 ± 0.1 s⁻¹ (Nc1ncnc2c1ncn2[C@@H]1O[C@H](CO)[C@H]2OP(=O)(O)O[C@H]21; pH 7.5, 45 °C).
The kcat of `wbpB (Pseudomonas aeruginosa, UniProt G3XD23)` is reported as 5550 ± 70 s⁻¹ (CC(=O)N[C@H]1[C@@H](OP(=O)(O)OP(=O)(O)OC[C@H]2O[C@@H](n3ccc(=O)[nH]c3=O)[C@H](O)[C@@H]2O)O[C@H](C(=O)O)[C@@H](O)[C@@H]1O; pH 8.5, 25 °C).
`nitrilase (Rhodococcus rhodochrous, UniProt A4LA85)` gave a kcat of 0.000288 ± 5e-06 s⁻¹ (N#CCCCC#N; pH 7.5, 25 °C).
With `OXA-48 (Klebsiella pneumoniae, UniProt Q6XEC0)` the kcat was 0.066 ± 0.002 s⁻¹ (C[C@@H](O)[C@H]1C(=O)N2C(C(=O)O)=C(S[C@@H]3CN[C@H](CNS(N)(=O)=O)C3)[C@H](C)[C@H]12; pH 7.2, 30 °C).
`B4 (enzyme E217L/L163H/N249W)` has a kcat of 0.00433 ± 0.00217 s⁻¹ (CC(=O)SCCNC(=O)CCNC(=O)[C@H](O)C(C)(C)COP(=O)(O)OP(=O)(O)OC[C@H]1O[C@@H](n2cnc3c(N)ncnc32)[C@H](O)[C@@H]1OP(=O)(O)O; pH 7.4, 37 °C).
`B5 (UGT84B1)` has a kcat of 0.0147 ± 0.000833 s⁻¹ (O=C(O)Cc1ccccc1; pH 7.5, 30 °C).
For `azu N30H/N36H/Q34D (Pseudomonas aeruginosa)`, the kcat was 0.00567 s⁻¹ (O=NO; pH 6.35).
With `B6 (enzyme)` the kcat was 0.997 s⁻¹ (O=[N+]([O-])c1ccc(OP(=O)(O)O)cc1; pH 6).

Repeated from above:
For `azu N30H/N36H/Q34D (Pseudomonas aeruginosa)`, the kcat was 0.00567 s⁻¹ (O=NO; pH 6.35).
`B1 (GlcAK1)` has a kcat of 8.5 s⁻¹ (Nc1ncnc2c1ncn2[C@@H]1O[C@H](COP(=O)(O)OP(=O)(O)OP(=O)(O)O)[C@@H](O)[C@H]1O; pH 7.5, 25 mM KCl, Hill fit, together with: 1 mM GlcA; 10 mM MgCl2).
